Measured values from different studies.
Parts stem from different laboratories: compare values within a part only. Substitutions count along the parent as printed.

Sample 1
Target: RING finger protein unkempt homolog, zinc fingers 1-6, GST-SBP tag (UNK, Homo sapiens, UniProt Q9C0B0, residues 30-357)
Technique: RNA Bind-n-Seq
Form: RNA
Matrix: in vitro
Concentration: not given
Notes: RNA with constant flanks, human and mouse sites, ends assumed
Relative to: input RNA pool
Direction: higher = stronger binding
All sequences stand within: GGGAGUUCUACAGUCCGACGAUC … CAACAGAGGAUUGAGCAUCA
Residues (chain): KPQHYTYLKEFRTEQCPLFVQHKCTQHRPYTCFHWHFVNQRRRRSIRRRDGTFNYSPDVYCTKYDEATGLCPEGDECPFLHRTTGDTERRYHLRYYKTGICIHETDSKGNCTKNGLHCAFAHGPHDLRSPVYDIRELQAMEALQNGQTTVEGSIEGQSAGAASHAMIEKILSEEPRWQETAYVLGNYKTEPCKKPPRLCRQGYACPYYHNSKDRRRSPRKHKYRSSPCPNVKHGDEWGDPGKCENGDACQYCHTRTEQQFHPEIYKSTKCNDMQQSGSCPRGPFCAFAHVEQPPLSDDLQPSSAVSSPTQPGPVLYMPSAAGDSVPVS
Sequence	bound/input enrichment [ratio]
AAUCCUUUCACUUGUCACUCGUGCCCCCUCCCCCAGGCCUCUUUCCCCACCUCAAGUCUGCUCUCUGUCUUCCCUCCCCUCCCUACAUUCCUAAGCCCUCUCAUCCCUCUAUCCCGAGGA	1.17
GGCUAUGAUGUUUUAGCCAACCCCCCAGGACCAGAAGACCAGGAUGAUGAUGACGAUGCCUAUAGCGAUGUGUUUGAAUUUGAAUUUUCAGAGACCCCCCUCUUACCGUGUUAUAACAUC	0.602
AAGGGCUACUAGAGUGGUUCAGCAGAUAAGGUGCUGCUACCAAACCAGAUGACCUGAGUUCAGUCCCCAAAUUGCAUGUGGUAGGAGAGAAUUAACUCCUAAAAAUUGUCCUCUGGGGCU	0.25
GGAAUCAACUUCAUGGUCUACCAACCAACCCCGUGGGAGGCAGCCUCAGACUCGAUGAAACGACUACAAAGUGCCAUGACAGAAGGUGGUGUGGUUCUACGGGAACCUCAGAGAAUCUAU	0.0685
AUCUAAGAUCCUUCAGCGCCCAGUCCUGUGAUCUCCCUUGGCUAAUAACGAACUGUAAGGAUGCCAGCAGCUCAUGAAGAAAGGGAGACUUCCAAAAGAGCCUGCGUUGUUUGAUUCAGC	0.116
ACAAUUGCUGUAAAACAAAGGUAAUUACUUAAGUGGUGGUGCAGGCCUUUAAUCCCAGCACUUAGAAGGCAGAGGAAGGUGGAUCUCUGAGAUCAAGGCCAGCCUGGUCUACACAGUGAG	0.264
CUGCAGUUUCAGGCCUGUCGAGGGGCACAGACAGCUGCUGCUGCAGCUCCCAGAAUCAAAAAAUUUGCCAUUUACCGAUGGGACCCAGACAAGACUGGAGAUAAACCUCGAAUGCAGACG	0.192
UUCUGAAGGCAGCUGCAAGGCCAUUUCAUUUACAUUAGGUUCCAUGGCACAGGAGCUUUGUUACUGUAAAACUAAGAAAAUGAAUUUGCACAUUGUAUAGAAGAGUUCUUUAGGAAGGUG	0.643
CUUUGUGGGCAGCGAGACCAUGCCUCCAACAUCUACAAGGUGGAGGGCGGCUGCAUCACCAAGUUGGAGACCUUCAUCCAGGAGCACCUGAGGGUCAUUGGGGCUGUGGGGAUCGGCAUU	0.107
AAGAUAAAACAAGAAAUCCUCCCUGAAGAACGAAUGAAUGGACAAGAAGUGUUUUAUCUGACUUACACCCCUGAAGAUGUCGAAGGGAACGUUCAGCUGGAAACUGGAGAUAAAAUAAAC	0.203
CCACAUUUUAUUUGUCCAUUUAUCAUUUGAUGGACAUUUGGGUUUUUUCCACCUUUUGAUUAUAAUAAUGCUGCUGUGAACAUUUAUGUAAAAGUUUUUUGUAUGGGUGUAUGUUUUCAC	0.673

Sample 2
Target: Ras GTPase-activating protein-binding protein 1, full length (G3BP1, Homo sapiens, UniProt Q13283)
UniProt Q13283, sequence (whole entry, looked up): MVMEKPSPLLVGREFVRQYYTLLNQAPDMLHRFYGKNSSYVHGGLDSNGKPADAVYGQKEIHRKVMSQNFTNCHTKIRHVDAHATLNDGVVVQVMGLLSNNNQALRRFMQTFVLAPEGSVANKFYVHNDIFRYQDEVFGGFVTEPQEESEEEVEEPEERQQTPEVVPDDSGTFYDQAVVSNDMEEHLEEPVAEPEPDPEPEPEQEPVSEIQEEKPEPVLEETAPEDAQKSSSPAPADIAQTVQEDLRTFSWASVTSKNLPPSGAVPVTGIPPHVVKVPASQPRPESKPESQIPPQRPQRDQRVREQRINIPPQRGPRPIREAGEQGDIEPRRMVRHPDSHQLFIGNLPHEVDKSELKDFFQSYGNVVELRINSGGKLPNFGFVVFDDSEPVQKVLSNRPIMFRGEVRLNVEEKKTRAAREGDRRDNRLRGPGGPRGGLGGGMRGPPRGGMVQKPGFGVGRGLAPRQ
Technique: RNA Bind-n-Seq
Form: RNA
Matrix: in vitro
Concentration: 200 nM
Notes: whole 134-nt RNA, ends assumed
Together with: 150 mM LiCl
Relative to: input library
Direction: higher = stronger binding
All molecules: 7-deaza-guanosine replaces G
All sequences stand within: GGGAGUUCUACAGUCCGACGAUC … UGGAAUUCUCGGGUGUCAAGG
Sequence	log2 enrichment
UCCUGUGCUACACAUCGUAUGUACCGAAUCGGGAAAAAGGGUUUUUUUGGGUUUUUGGGAAAGUAUUAUGUUACGCCGUUCGGAUCUGCA	-2.05
UUUGUAGAGCAGCCCGACGGCCAUGGAGGCUGAAGAGACGAUGGAAUGCCUUCAGGAGUUCCCUGAACAUCAUAAAAUGAUCCUCGACCG	-1.44
AGUCCUGUGCUACACAUCGUAUGUACCGAAUCGGUUUUUGGUUUUUGGGUUUUUGGGGAAAGUAUUAUGUUACGCCGUUCGGAUCUGCAC	0.185
CUCAAGUCCUGUGCUACACAUCGUAUGUACCGAAUCGGAAAGGAAAGGAAAGGAAAGUAUUAUGUUACGCCGUUCGGAUCUGCACUUCCA	-0.106
CAAGUCCUGUGCUACACAUCGUAUGUACCGAAUCGGAAAGGGAAAGGGGAAAGGGGAAAGUAUUAUGUUACGCCGUUCGGAUCUGCACUU	-0.0992
GUCCUGUGCUACACAUCGUAUGUACCGAAUCGGGAAAAGGGGAAAAGGGGAAAAGGGGAAAGUAUUAUGUUACGCCGUUCGGAUCUGCAC	0.413
UGGGAGGUGGAUUUUGUUUAUUUUUUUAGCUCAUUUCCAGGGGUGGGAAUUUUUUUUUAAUAUGUGUCAUGAAUAAAGUUGUUUUUGACA	-0.286
UCCUGUGCUACACAUCGUAUGUACCGAAUCGGCCCCCCGGCCCCCCGGGGCCCCCCGGGGAAAGUAUUAUGUUACGCCGUUCGGAUCUGC	-0.101
UCAAGUCCUGUGCUACACAUCGUAUGUACCGAAUCGGUUUUUGGAGGUUUUUGGAAAGUAUUAUGUUACGCCGUUCGGAUCUGCACUUCC	-0.0377
ACCAUGCAGGUGGGCAUCUUUGGGAAGUGGGGCAAGGGGGGGAUAGGGAGGGGGGUAACACUUUGGGAACAGGUGGUCCCAAAUCGUUUC	0.39
UCAAGUCCUGUGCUACACAUCGUAUGUACCGAAUCGGGUUUGGGUUUGGUUUGGAAAGUAUUAUGUUACGCCGUUCGGAUCUGCACUUCC	-0.388

Sample 3
Target: Sal-like protein 4, full length isoform A (SALL4, Homo sapiens, UniProt Q9UJQ4, residues 1-1053)
UniProt Q9UJQ4, sequence (whole entry, looked up): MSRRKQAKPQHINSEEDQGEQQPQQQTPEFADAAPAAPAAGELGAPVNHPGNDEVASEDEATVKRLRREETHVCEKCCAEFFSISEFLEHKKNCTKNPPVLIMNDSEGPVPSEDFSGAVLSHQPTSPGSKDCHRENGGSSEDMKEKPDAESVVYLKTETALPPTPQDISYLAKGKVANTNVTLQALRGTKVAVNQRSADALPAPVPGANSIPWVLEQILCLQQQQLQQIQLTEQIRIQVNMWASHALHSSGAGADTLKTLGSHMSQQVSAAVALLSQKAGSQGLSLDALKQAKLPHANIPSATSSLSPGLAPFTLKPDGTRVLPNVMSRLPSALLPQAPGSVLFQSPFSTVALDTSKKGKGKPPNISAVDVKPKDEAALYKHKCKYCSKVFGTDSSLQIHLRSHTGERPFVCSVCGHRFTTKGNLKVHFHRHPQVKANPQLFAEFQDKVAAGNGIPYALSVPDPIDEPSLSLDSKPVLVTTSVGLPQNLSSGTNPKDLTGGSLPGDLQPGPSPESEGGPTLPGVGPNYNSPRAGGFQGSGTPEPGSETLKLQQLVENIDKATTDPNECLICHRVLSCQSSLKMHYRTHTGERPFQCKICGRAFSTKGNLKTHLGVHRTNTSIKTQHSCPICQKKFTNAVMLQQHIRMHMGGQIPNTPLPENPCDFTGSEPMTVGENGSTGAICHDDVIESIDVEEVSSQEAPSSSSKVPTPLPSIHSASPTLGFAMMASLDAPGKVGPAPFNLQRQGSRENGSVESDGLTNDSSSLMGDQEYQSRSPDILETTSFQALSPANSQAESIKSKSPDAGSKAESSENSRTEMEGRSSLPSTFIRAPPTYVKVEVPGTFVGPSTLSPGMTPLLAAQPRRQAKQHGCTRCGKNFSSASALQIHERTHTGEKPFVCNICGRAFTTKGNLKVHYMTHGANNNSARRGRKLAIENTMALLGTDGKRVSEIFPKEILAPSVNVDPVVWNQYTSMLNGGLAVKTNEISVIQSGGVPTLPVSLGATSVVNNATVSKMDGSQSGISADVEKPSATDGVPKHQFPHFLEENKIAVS
Technique: universal PBM
Form: double-stranded DNA, one strand shown
Matrix: in vitro
Concentration: 600 nM
Notes: 8-mer, flanks averaged, mean of replicates
Direction: higher = stronger binding
Sequence	E-score
CGTGATAA	0.194
AATTCAAA	0.344
CGGTTACG	-0.161
ACTAAAAG	0.108
GATCGTAA	0.0821
AATGCACC	-0.0609
GCAAGAAC	-0.00072
ATGAGAAG	0.118
TAGGAAGA	0.0261
GAGTAGGA	-0.0666
ACCCCCAG	-0.195
ACTCTTGA	0.0695
CCACTGAA	-0.000765
CGGGGGCC	-0.384
GCGTTAGA	0.0254
GTGCCTCA	-0.242

Sample 4
Target: Histone acetyltransferase KAT6A, winged helix 1, GST fusion (KAT6A, Homo sapiens, UniProt Q92794, residues 1-85)
Technique: protein binding microarray
Form: double-stranded DNA, one strand shown
Matrix: in vitro
Concentration: not given
Notes: 8-mer, flanks averaged, mean of 2 arrays, mostly near background
Relative to: not given
Direction: higher = stronger binding
Target sequence (chain): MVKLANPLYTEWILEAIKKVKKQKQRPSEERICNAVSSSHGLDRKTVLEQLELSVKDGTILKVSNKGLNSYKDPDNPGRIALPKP
Sequence	E-score
TCCTTACA	-0.151
CCTTCTAC	-0.17
CTAGGCCA	-0.0581
CAGTTCTC	-0.121
AGAATGCT	-0.155
ATTAGGCG	0.131
AAACGAGA	-0.0268
AACGTAAG	-0.169
GATTCCCC	0.0737
CAGAATGA	-0.0901
CAGAGGTC	0.0339
GGTCCACA	-0.213
ACCTCCGG	0.0653
CTTGCGTC	0.135
ACTTGCTG	-0.144
AACGTATA	0.0499
CCATAGAG	-0.0827
GACCAGAA	-0.228
ATCACCTA	-0.274
AGTTAAGA	-0.168
CGGTTCTA	0.224
AAAAACGT	-0.00213
CCATTCGG	-0.0645
GGGCTGAC	0.0739
GACATGAC	0.0642

Sample 5
Target: CCNE1, cyclin fold, Cln2 fusion (human)
Technique: yeast growth competition, sequencing
Matrix: yeast
Notes: weak parent motif
Relative to: not given
Direction: higher = stronger binding
Starting sequence: RP1L1 docking peptide (human); TLGLGPLSFTLED
Substitution	normalised enrichment score
TLALGPLSFTLED [G3A]	0.162
TAGLGPLSFTLED [L2A]	0.208
ALGLGPLSFTLED [T1A]	0.0685
TLGLGPASFTLED [L7A]	0.00462
TLGLGPLSFTLAD [E12A]	0.211
TLGLGALSFTLED [P6A]	0.183

Other studies, line by line
Molecule	partner	technique	matrix	together with	endpoint	value
TOMM20 (Homo sapiens, UniProt Q15388)	TRPM6 (Homo sapiens, UniProt Q9BX84)	cross-linking MS	cell fractions	DSSO	cross-linked residues	K56 to S1697

A few entries again (sample 1):
Sequence	bound/input enrichment [ratio]
AUCUAAGAUCCUUCAGCGCCCAGUCCUGUGAUCUCCCUUGGCUAAUAACGAACUGUAAGGAUGCCAGCAGCUCAUGAAGAAAGGGAGACUUCCAAAAGAGCCUGCGUUGUUUGAUUCAGC	0.116
CUGCAGUUUCAGGCCUGUCGAGGGGCACAGACAGCUGCUGCUGCAGCUCCCAGAAUCAAAAAAUUUGCCAUUUACCGAUGGGACCCAGACAAGACUGGAGAUAAACCUCGAAUGCAGACG	0.192
AAGAUAAAACAAGAAAUCCUCCCUGAAGAACGAAUGAAUGGACAAGAAGUGUUUUAUCUGACUUACACCCCUGAAGAUGUCGAAGGGAACGUUCAGCUGGAAACUGGAGAUAAAAUAAAC	0.203
UUCUGAAGGCAGCUGCAAGGCCAUUUCAUUUACAUUAGGUUCCAUGGCACAGGAGCUUUGUUACUGUAAAACUAAGAAAAUGAAUUUGCACAUUGUAUAGAAGAGUUCUUUAGGAAGGUG	0.643
GGCUAUGAUGUUUUAGCCAACCCCCCAGGACCAGAAGACCAGGAUGAUGAUGACGAUGCCUAUAGCGAUGUGUUUGAAUUUGAAUUUUCAGAGACCCCCCUCUUACCGUGUUAUAACAUC	0.602
AAUCCUUUCACUUGUCACUCGUGCCCCCUCCCCCAGGCCUCUUUCCCCACCUCAAGUCUGCUCUCUGUCUUCCCUCCCCUCCCUACAUUCCUAAGCCCUCUCAUCCCUCUAUCCCGAGGA	1.17
